Assay results pooled from the literature.
“And” joins repeats or separate records; there may be more than shown. Numbers after ± are the reported error.

The AUC(0-t) of O=C1c2ccncc2C(=O)c2c1[nH]c1ccccc21 is reported as 1.29 ± 0.702 µM·h (Sprague-Dawley rat female, plasma; intravenous, 1 mg/kg).
With C=CC(=O)N1CCC(Oc2cc3c(Nc4ccc(Cl)c(Cl)c4F)ncnc3cc2OC)CC1 the AUC(0-t) was 3810 ± 511 ng·h/mL (male Sprague-Dawley rats, plasma; oral, 2 mg/kg).
The AUC(0-t) of CC[C@@H]([C@H](C)O)n1ncn(-c2ccc(N3CCN(c4ccc(OC[C@@H]5CO[C@@](Cn6cncn6)(c6ccc(F)cc6F)C5)cc4)CC3)cc2)c1=O is reported as 21700 ± 7110 ng·h/mL (Sprague-Dawley rats, plasma; oral, 40 mg/kg, together with: zanubrutinib 16 mg/kg).
CC(C)c1nc(N(C)S(C)(=O)=O)nc(-c2ccc(F)cc2)c1/C=C/[C@@H](O)C[C@@H](O)CC(=O)O gave an AUC(0-t) of 10100 ng·h/mL (rat, Wistar albino, plasma; oral, 20 mg/kg).
With Nc1nc(O)c2ncn(COC(CO)CO)c2n1 the AUC(0-t) was 520 ± 82.5 ng·h/mL (Sprague-Dawley rat male; oral, 10 mg/kg).
For C1=C/COCc2cc(ccc2OCCN2CCCC2)Nc2nccc(n2)-c2cccc(c2)COC/1, the AUC(0-t) was 2.5 fold increase (Sprague-Dawley rats, male, plasma; oral, dose not given, together with: isavuconazole; relative to: isavuconazole alone).
For Cc1cccc(CNC(=O)c2cn(CCNC(=O)c3ccccc3S)c3cc4c(cc3c2=O)OC(F)(F)O4)n1, the AUC(0-t) was 145 ± 22.3 ng·h/mL (Sprague-Dawley rat, male, plasma; intramuscular, 10 mg/kg of parent compound).
The AUC(0-t) of Cc1ccc(S(=O)(=O)n2cc3c4c2C(=O)C(NCc2ccc(Cl)cc2)=CC4=NCC3)cc1 is reported as 1770 ng·h/mL and 2060 ng·h/mL (Sprague-Dawley rat, plasma; intravenous, 5 mg/kg, individual rat).
The AUC(0-t) of CCc1c(-c2ccccc2)c(-c2ccccc2)nn1-c1ccccc1-c1cccc(OCC(=O)O)c1 is reported as 3250 ng·h/mL and 3090 ng·h/mL and 2390 ng·h/mL (Sprague-Dawley rat; intravenous, dose not given).
Cc1cccc(CNC(=O)c2cn(CCNC(=O)c3ccccc3Sc3c([N+](=O)[O-])ncn3C)c3cc4c(cc3c2=O)OC(F)(F)O4)n1 has an AUC(0-t) of 122 ± 74.5 ng·h/mL (Sprague-Dawley rat, male, whole blood; intramuscular, 10 mg/kg of parent compound).
CNCc1cc(-c2ccccc2F)n(S(=O)(=O)c2cccnc2)c1 gave an AUC(0-t) of 275 ng·h/mL (rat Sprague-Dawley male, plasma; oral, 10 mg/kg).
Cc1nccn1CC1CCc2c(c3ccccc3n2C)C1=O (centres unmarked) gave an AUC(0-t) of 2680 ng·h/mL (male Sprague Dawley rat, plasma; iv bolus, 5 mg/kg, together with: tariquidar 15 mg/kg iv, 1 h before).
O=C(Nc1ccc(OC(F)(F)Cl)cc1)c1cnc(N2CC[C@@H](O)C2)c(-c2ccn[nH]2)c1 has an AUC(0-t) of 1910 ± 347 ng·h/mL (Sprague-Dawley rat, male, plasma; oral, 8 mg/kg).
For COc1cccc(-c2n[nH]c(SCc3ccccn3)n2)c1OC, the AUC(0-t) was 2110 ng·h/mL (Sprague-Dawley rats, female, plasma; intravenous, 1.0 mg/kg, single dose).
CN1CCC[C@H](CN2c3ccccc3Sc3ccccc32)C1.Cl gave an AUC(0-t) of 19600 ng·h/mL (Wistar rat female, skin; oral, 16 mg/kg).
CCCCCOC(=O)Nc1nc(=O)n([C@@H]2O[C@H](C)[C@@H](O)[C@H]2O)cc1F has an AUC(0-t) of 12200 ± 1100 ng·h/mL (Sprague-Dawley rat, plasma; oral, 200 mg/kg, together with: chitooligosaccharide 20 min before glucosamine 250 mg/kg).
With CSc1ccccc1C(=O)NCCn1cc(C(=O)NCc2cccc(C)n2)c(=O)c2cc3c(cc21)OC(F)(F)O3 the AUC(0-t) was 98.4 ± 33.2 ng·h/mL (Sprague-Dawley rat, male, whole blood; intramuscular, 30 mg/kg of parent compound).
